Measured values of several laboratories.
Numbered parts are unrelated; each lists some results of a single study. Substitutions count along the parent as printed.

Sample 1 — technique: DHFR PCA, deep sequencing; medium: yeast; together with: (+)-ABA 200 µM; reference: wild-type fitted maximum; reading: higher = stronger binding
Target: ABI1, truncated, D143A, DHFR fusion (Arabidopsis thaliana)
Setting: methotrexate growth selection, single substitutions
Parent: PYL1, truncated, DHFR fusion (Arabidopsis thaliana); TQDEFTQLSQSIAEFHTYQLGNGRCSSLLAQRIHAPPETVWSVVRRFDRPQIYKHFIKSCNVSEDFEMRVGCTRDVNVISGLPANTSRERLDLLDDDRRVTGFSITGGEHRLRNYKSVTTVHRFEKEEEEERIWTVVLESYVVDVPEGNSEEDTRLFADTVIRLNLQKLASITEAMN; partner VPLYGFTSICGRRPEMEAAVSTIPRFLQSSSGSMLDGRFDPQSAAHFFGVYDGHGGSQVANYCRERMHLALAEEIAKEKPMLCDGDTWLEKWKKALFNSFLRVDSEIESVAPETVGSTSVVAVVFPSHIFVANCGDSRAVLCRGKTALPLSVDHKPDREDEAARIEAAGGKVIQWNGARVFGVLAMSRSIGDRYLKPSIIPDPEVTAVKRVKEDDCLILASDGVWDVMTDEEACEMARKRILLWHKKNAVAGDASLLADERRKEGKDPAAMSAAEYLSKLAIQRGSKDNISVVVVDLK
`Q51T` — result for “relative binding score”: 87.8%.
`L93A`: “relative binding score” 93.3%.
`G71D`: “relative binding score” 70.2%.
For `E127Y`, “relative binding score” read 99.3%.
For `G23K`, “relative binding score” read 97.8%.
`E130K`: “relative binding score” 114%.
For `G148I`, “relative binding score” read 43.4%.
For `D75L`, “relative binding score” read 105%.
`E152S` — result for “relative binding score”: 95%.
For `P36K`, “relative binding score” read 91.8%.
`E131I`: “relative binding score” 101%.
`E147W`: “relative binding score” 83.6%.
Under “relative binding score”, `E38C` is recorded as 84.6%.
`L164G`: “relative binding score” 83.9%.
For `I105W`, “relative binding score” read -6.81%.
`G21S`: “relative binding score” 102%.
For `S150W`, “relative binding score” read 38.5%.
`L138Q`: “relative binding score” 45.5%.
`G71Y` — result for “relative binding score”: 33.2%.
For `D75C`, “relative binding score” read 102%.
For `D153Y`, “relative binding score” read 12.8%.
For `L156G`, “relative binding score” read 87.8%.
`V143Y`: “relative binding score” 16.3%.
`E128P`: “relative binding score” 108%.
`I12P`: “relative binding score” 21.6%.

Sample 2 — target: UBE2N UBC core domain (UniProt P61088); technique: yeast two-hybrid; medium: yeast; setting: mostly zero background; reference: not given; reading: higher = stronger interaction
B1: RNF135 RING domain (UniProt Q8IUD6); chain PVWLAEDDLGCIICQGLLDWPATLPCGHSFCRHCLEALWGARDARRWACPTCRQGAAQQPHLR
B2: TRIM22 RING domain (UniProt Q8IYM9); chain KEVKMSPQEGQKRDVCEHHGKKLQIFCKEDGKVICWVCELSQEHQGHQTFRINEVVKECQEK
B3: ZNRF3 RING domain (UniProt Q9ULT6); chain DTLSSSSTSDCAICLEKYIDGEELRVIPCTHRFHRKCVDPWLLQHHTCPHCRHNIIEQKGNP
B4: PRKN RING domain (UniProt O60260); chain LIATNSRNITCITCTDVRSPVLVFQCNSRHVICLDCFHLYCVTRLNDRQFVHDPQLGYSLPCVAGCPNSLIKELHH
B5: RNF24 RING domain (UniProt Q9Y225); chain KVKELNLHELCAVCLEDFKPRDELGICPCKHAFHRKCLIKWLEVRKVCPLCNMPVLQLAQLH
B6: Ltn1 RING domain (UniProt Q6A009); chain VDKRFEGVEDCMICFSVIHGFNYSLPKKACRTCKKKFHSACLYKWFTSSNKSTCPLCRETFF
Target sequence (chain): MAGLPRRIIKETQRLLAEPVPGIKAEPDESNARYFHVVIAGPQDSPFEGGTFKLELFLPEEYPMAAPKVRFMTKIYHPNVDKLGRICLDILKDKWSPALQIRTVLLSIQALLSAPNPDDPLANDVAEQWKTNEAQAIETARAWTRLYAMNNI
`B1 (RNF135 RING domain)` — result for “lacZ reporter activity”: 0.
For `B2 (TRIM22 RING domain)`, “lacZ reporter activity” read 0.
Under “lacZ reporter activity”, `B3 (ZNRF3 RING domain)` is recorded as 9670.
For `MDDQGCPRCKTTKYRNPSLKLMVNVCGHTLCESCVDLLFVRGAGNCPECGTPLRKSNFRV (MNAT1 RING domain (UniProt P51948))`, “lacZ reporter activity” read 0.
For `KITELNPHLMCVLCGGYFIDATTIIECLHSFCKTCIVRYLETSKYCPICDVQVHKTRPLL (BMI1 RING domain (UniProt P35226))`, “lacZ reporter activity” read 0.
`NTAPSLTVPECAICLQTCVHPVSLPCKHVFCYLCVKGASWLGKRCALCRQEIPEDFLDK (RNF146 RING domain (UniProt Q9NTX7))`: “lacZ reporter activity” 0.
For `ALDRLEKLLRCSRCTNILREPVCLGGCEHIFCSNCVSDCIGTGCPVCYTPAWIQDLKI (BARD1 RING domain (UniProt Q99728))`, “lacZ reporter activity” read 0.
`QLRRLQEERTCKVCLDRAVSIVFVPCGHLVCAECAPGLQLCPICRAPVRSRVRTF (BIRC7 RING domain (UniProt Q96CA5))` — result for “lacZ reporter activity”: 0.
For `B4 (PRKN RING domain)`, “lacZ reporter activity” read 0.
For `B5 (RNF24 RING domain)`, “lacZ reporter activity” read 0.
Under “lacZ reporter activity”, `B6 (Ltn1 RING domain)` is recorded as 0.

Sample 3 — technique: RNA Bind-n-Seq; form: RNA; medium: in vitro; tested at: 365 nM; reference: no-protein control; reading: higher = stronger binding
Target: RNA binding protein fox-1 homolog 2, RRM domain, GST-SBP tag (RBFOX2, Homo sapiens, UniProt O43251-10, residues 100-194)
Setting: natural RNA segment, single round, ends assumed
Target sequence (chain): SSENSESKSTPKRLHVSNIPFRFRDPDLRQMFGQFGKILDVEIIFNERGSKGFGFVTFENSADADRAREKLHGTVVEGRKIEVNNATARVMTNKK
`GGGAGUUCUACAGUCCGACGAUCGGAGACGCUGGAAGUUAAGCAAUACUUUAAUACUGUAAUAUGUUUGUUUUCUUUUUCUUUCUUUUUUUUCUACCAAAAAAAAGUAAGUAAACUAAAACACAAAAACAUAUUGGAAUUCUCGGGUGCCAA` — result for “RBNS enrichment (R)”: 0.601.
`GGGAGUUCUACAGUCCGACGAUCUUUCAAUAUUUGGGUAAUAUUAGAAAGAUUCUUCCCACAGGGAAGAACUAGCAAGUGUCCCAAUUUUUUCCAAACGUUGGGGAGGGGAAAAUUCACUGUAUCAUGAAACCUGGAAUUCUCGGGUGCCAA` — result for “RBNS enrichment (R)”: 0.486.
`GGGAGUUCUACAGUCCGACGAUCAUGUAACAGAACAGUCUAGAGAAGAUUAAGGACCACAUGGCUUUCUUGCUCUACUUGAAAUUAAUUGUGAGCAUAAGCUUGUUUCUGGAGUCUUCUUACAUUGUUGGUUCUGGAAUUCUCGGGUGCCAA`: “RBNS enrichment (R)” 0.434.
For `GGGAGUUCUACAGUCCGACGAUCUGCACUUUGAAUAUGGAAGAGAAUUUGAGCAGACCCCCGCGGGACCAAGACUGAAAGAGGCAAGGUCUCCUUGCCUCGGCCCAGUGAUCAUGACAGGAAUGAACCCAAACUGGAAUUCUCGGGUGCCAA`, “RBNS enrichment (R)” read 0.774.
Under “RBNS enrichment (R)”, `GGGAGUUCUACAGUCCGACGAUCCCCGAGCCCUCCACACCAGCCUCCUGUAUCUCAUCAGGUCCCUUCUCAGUACUGUAUUUGCUCAGUGCAUCAGGAAUGGGUGUAUGGGUGUGUGUGGGUGGGUGUGAGUGUGGAAUUCUCGGGUGCCAA` is recorded as 0.268.
Under “RBNS enrichment (R)”, `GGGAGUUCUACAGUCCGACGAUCUCUGCCUGGGCAAGAGUGUGGAGGUGCCGAGGUGUCUUCAUUCUCUCGCACAUUUCCACAGCACCUGCUAAGUUUGUAUUUAAUGGUUUUUGUUUUUGUUUUUGUUUGUUUGGAAUUCUCGGGUGCCAA` is recorded as 4.34.
`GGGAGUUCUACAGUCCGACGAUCGAGAGGGAGUUGUGGGAAAUAAGAAGAAUGAAAGCCUCUCUUUCUGUCCGCAGAUCCUGACUUUUCCAAAGUGCCUUAAAAGAAAUCAGACAAAUGCCCUGAGUGGUAACUGGAAUUCUCGGGUGCCAA`: “RBNS enrichment (R)” 0.578.
Under “RBNS enrichment (R)”, `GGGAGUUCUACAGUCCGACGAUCAGCCUGUGGCAGUAAAGAGAAACUUUGUGCUACAUGACGACAAAGCUGCUAAAUCUCCUAUUUUUUUAAAAUCACUAACAUUAUAUUGCAAUGAAGGAAAUAAAAAAGUCUGGAAUUCUCGGGUGCCAA` is recorded as 0.903.
For `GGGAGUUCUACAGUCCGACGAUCUAUUUAAAAGGGAUACUUUUGUAAAAGUAAAACCUUGUAUAAAGAACAAAAUGUUUCUUAAUUUUAUUGUGGAGUUACAACUUGCAUGUUCCUUACUCCUGUUGGCUUGAUGGAAUUCUCGGGUGCCAA`, “RBNS enrichment (R)” read 12.1.

Sample 4 — technique: protein-binding microarray; form: double-stranded DNA, one strand shown; medium: in vitro; tested at: 2540 nM top; setting: 60-bp whole probe; together with: salmon DNA 0.4 mg/ml; reference: random background probes; reading: higher = stronger binding; shared flanks, not repeated: GCCTAGCAC … GTCTTGATTCGCTTGACGCTGCTG
Target: Interferon regulatory factor 3, full length, phosphomimetic (IRF3, Homo sapiens, UniProt Q14653, residues 1-427, S386D/S396D/S398D/S402D/T404D/S405D)
Residues (chain): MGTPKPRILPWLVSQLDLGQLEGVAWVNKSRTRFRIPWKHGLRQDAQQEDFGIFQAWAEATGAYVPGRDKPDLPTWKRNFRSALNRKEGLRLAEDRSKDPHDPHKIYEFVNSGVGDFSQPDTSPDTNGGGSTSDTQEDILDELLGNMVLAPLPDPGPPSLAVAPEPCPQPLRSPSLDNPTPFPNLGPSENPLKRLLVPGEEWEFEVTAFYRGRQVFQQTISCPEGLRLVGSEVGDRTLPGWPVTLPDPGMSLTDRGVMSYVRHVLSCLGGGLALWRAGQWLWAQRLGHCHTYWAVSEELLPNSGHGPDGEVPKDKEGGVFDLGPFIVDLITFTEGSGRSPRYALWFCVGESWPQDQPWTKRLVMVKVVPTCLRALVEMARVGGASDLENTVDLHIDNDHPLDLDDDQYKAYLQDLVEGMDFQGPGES
`GTAGGTCTCCTTTTCCTTTAGTGCTAG`: “fitted relative affinity” 5.31 z-score.
Under “fitted relative affinity”, `GTCGGTTTCGACTTTCGGGACGTGCTA` is recorded as 5.29 z-score.
`TTAGGTATAGGACTGGGTTAGTGCTAG`: “fitted relative affinity” -0.699 z-score.
For `CTCTGCTTCTGTATGGGCATGTGCTAG`, “fitted relative affinity” read -0.343 z-score.
`TTAGGTATCCTTTTGCTTTAGTGCTAG`: “fitted relative affinity” 6.16 z-score.
`TTAGACTTCGGGTTTCGATTAGTGCTA`: “fitted relative affinity” 1.26 z-score.
Under “fitted relative affinity”, `GACGCTTTCGGTATCGGGACGTGCTAG` is recorded as 5.37 z-score.
For `GACGGTTTCCTTCTCCTGACGTGCTAG`, “fitted relative affinity” read 10.4 z-score.
For `TTAAGTATCCTTATCCTTTAGTGCTAG`, “fitted relative affinity” read 6.38 z-score.
`TCAATTCCAGGGTTTTATACTGTGCTA` — result for “fitted relative affinity”: 0.19 z-score.
Under “fitted relative affinity”, `GACGATATCAGTATGGAGACGTGCTAG` is recorded as 0.484 z-score.
`TTAGGTTTCCTTTCCCGTTAGTGCTAG` — result for “fitted relative affinity”: 10.4 z-score.
Under “fitted relative affinity”, `TTAGAACTGATTATCGATTAGTGCTAG` is recorded as 0.188 z-score.
Under “fitted relative affinity”, `GACGGTATCCACTATCGGGACGTGCTA` is recorded as 1.5 z-score.
Under “fitted relative affinity”, `CCACTTTCACTTCTCCCTTTGTGCTAG` is recorded as 6.46 z-score.
Under “fitted relative affinity”, `GACGGGATCCTTCTCCTGACGTGCTAG` is recorded as 4.49 z-score.
Under “fitted relative affinity”, `GACGTTATCGACTTTCGGGACGTGCTA` is recorded as 0.865 z-score.
`GACGGTATCGGTCTCGAGACGTGCTAG`: “fitted relative affinity” 4.7 z-score.
For `TTCGATTTCAGTATCGATTAGTGCTAG`, “fitted relative affinity” read 3.04 z-score.
Under “fitted relative affinity”, `TTAGGTTCCCTTGTCCTTTAGTGCTAG` is recorded as 2.58 z-score.
For `TCACCTTGAGGTTTTCTCACTGTGCTA`, “fitted relative affinity” read -0.0641 z-score.
`TCATATATACCTGTATAACTGTGCTAG` — result for “fitted relative affinity”: 0.643 z-score.
Under “fitted relative affinity”, `ATTCTTTGCTCATTTTTCAGGGTGCTA` is recorded as 1.62 z-score.
`TTAGGTTTCGTTCTCCTTTAGTGCTAG`: “fitted relative affinity” 8.08 z-score.
`GACGAACTGGGGACTGGAGGCGTGCTA` — result for “fitted relative affinity”: -0.535 z-score.

Excerpt of the above (sample 4):
`TTAGGTATAGGACTGGGTTAGTGCTAG`: “fitted relative affinity” -0.699 z-score.
Under “fitted relative affinity”, `TTAGAACTGATTATCGATTAGTGCTAG` is recorded as 0.188 z-score.
`TTAGGTATCCTTTTGCTTTAGTGCTAG`: “fitted relative affinity” 6.16 z-score.
`TTAGGTTTCGTTCTCCTTTAGTGCTAG`: “fitted relative affinity” 8.08 z-score.
For `TCACCTTGAGGTTTTCTCACTGTGCTA`, “fitted relative affinity” read -0.0641 z-score.
Under “fitted relative affinity”, `TTAGGTTCCCTTGTCCTTTAGTGCTAG` is recorded as 2.58 z-score.
`GACGAACTGGGGACTGGAGGCGTGCTA` — result for “fitted relative affinity”: -0.535 z-score.
Under “fitted relative affinity”, `GACGATATCAGTATGGAGACGTGCTAG` is recorded as 0.484 z-score.
